Measured values from different studies.
Compare with care: the assays were run in different laboratories. ± marks the error that the study gave.

Compound	target or system	assay	system	conditions	scale	quantity	value
COC1OC(C)C(O)C(OC2OC(C)C(O)C(OC3OC(C)C(O)C(OC4OC(C)C(O)C(OC5OC(C)C(O)C(OS(=O)(=O)O)C5OS(=O)(=O)O)C4OS(=O)(=O)O)C3OS(=O)(=O)O)C2OS(=O)(=O)O)C1OS(=O)(=O)O (stereo not shown)	–	–	human plasma	128 µg/mL	baseline: control	APTT prolongation	1.1 fold
CC(CCC(=O)NCc1ccc(C(=O)NO)cc1)C1CCC2C3C(O)CC4CC(O)CCC4(C)C3CCC12C (stereo not shown)	–	refers to: GCA	PCK rat (Pkhd1 mutant), peripheral blood	oral gavage, dose not given, 5 months	baseline: total bile acids	relative abundance	11.3%
Fc1ccccc1N1CCN(C2CCCN(Cc3cccc(C(F)(F)F)c3)C2)CC1 (stereo not shown)	Trypanosoma cruzi	reporter mRNA translation, inhibitor, refers to: capped polyadenylated Renilla luciferase mRNA	cell-free extract	concentration not given	baseline: control RNA	relative translation	105%
CC[C@H](C)NCC(SS(=O)(=O)O)c1ccccc1 (stereo partly shown)	–	–	Swiss Webster mice, Schistosoma mansoni infected	100 mg/kg	baseline: vehicle control	spleen weight decrease	-8%
CCOc1cc(CN2CCCC(CNC(=O)c3ccc(F)cc3)C2)ccc1OC (stereo not shown)	Trypanosoma cruzi	reporter mRNA translation, inhibitor, refers to: capped polyadenylated Renilla luciferase mRNA	cell-free extract	concentration not given	baseline: control RNA	relative translation	102%
CN1CCC(N[C@@H]2CCc3[nH]c4c(C(N)=O)ccc(-c5ccccc5Cl)c4c3C2)CC1	–	organoid viability, CellTiter-Glo 3D	sample A colorectal cancer organoid, human	6 days	–	IC50	3.12 nM
Oc1cc2c(cc1O)C(c1ccc3[nH]ccc3c1)NCC2 (stereo not shown)	–	ferrozine	cell-free	100 µM, DMSO solvent	–	Fe2+ chelation	92 ± 1.17%
Nc1nc2cnc(C(=O)N3CCOC[C@@H]3c3ccc(C(F)(F)F)cc3)cc2c2c1COC2	–	ELISA, refers to: SDMA	mouse, HCT-116 MTAP wild type xenograft, tumour	oral, 10 mg/kg once daily	baseline: vehicle	inhibition	27%
COC1OC(C)C(OC2OC(C)C(O)C(OC3OC(C)C(O)C(OS(=O)(=O)O)C3OS(=O)(=O)O)C2OS(=O)(=O)O)C(OS(=O)(=O)O)C1OS(=O)(=O)O (stereo not shown)	–	–	human plasma	128 µg/mL	baseline: control	APTT prolongation	1.1 fold
COCCOCCOCCNC(=O)Cc1cc(CC(=O)N[C@H]2C[C@H]3C(=O)Nc4cc(OCCOCCOCCOC)cc(n4)C(=O)N4CCC[C@H]4C(=O)Nc4cc(OCCOCCOCCOC)cc(n4)C(=O)N4CCC[C@H]4C(=O)Nc4cc(OCCOCCOCCOC)cc(n4)C(=O)N3C2)cc(CC(=O)N[C@H]2C[C@H]3C(=O)Nc4cc(OCCOCCOCCOC)cc(n4)C(=O)N4CCC[C@H]4C(=O)Nc4cc(OCCOCCOCCOC)cc(n4)C(=O)N4CCC[C@H]4C(=O)Nc4cc(OCCOCCOCCOC)cc(n4)C(=O)N3C2)c1	–	anion binding, ITC	water/methanol 95 vol% (97.7 mol%)	298 K, together with: sodium sulfate	–	ΔG	-20.7 ± 0.2 kJ/mol
COc1cc(O)ccc1CCC(c1ccc(O)cc1)c1cc2c(c(C)c1O)OC(c1ccc(O)cc1)CC2 (mixture of isomers)	–	refers to: arachidonic acid	human whole blood	0.3 µM, together with: Escherichia coli	–	amount	514000 ± 51200 pg/mL blood
COC1CN([C@H]2CC[C@H]([C@@]3(C)Oc4c(Cl)cc(C(=O)NCc5c(SC)cc(C)[nH]c5=O)c(C)c4O3)CC2)C1	–	RNA-seq, refers to: MCF2L	human, whole blood	dose not given, 24 h	baseline: pretreatment baseline	log2 fold change	1.78
O=Cc1c(O)c(C=O)c(O)c(C=O)c1O	–	HPLC-MS	–	pH 10.2, together with: 50 mM N-α-acetyl-lysine	–	pseudo-first-order rate constant	15.8 h⁻¹
